# Measured values from different studies.
# Chains of the proteins cited; added tags and fusions are not shown. A line that says so, or that is headed by a name, gives the form on record, which may keep a tag or linker. Residues count along the entry.
# UniProt P41146, whole entry: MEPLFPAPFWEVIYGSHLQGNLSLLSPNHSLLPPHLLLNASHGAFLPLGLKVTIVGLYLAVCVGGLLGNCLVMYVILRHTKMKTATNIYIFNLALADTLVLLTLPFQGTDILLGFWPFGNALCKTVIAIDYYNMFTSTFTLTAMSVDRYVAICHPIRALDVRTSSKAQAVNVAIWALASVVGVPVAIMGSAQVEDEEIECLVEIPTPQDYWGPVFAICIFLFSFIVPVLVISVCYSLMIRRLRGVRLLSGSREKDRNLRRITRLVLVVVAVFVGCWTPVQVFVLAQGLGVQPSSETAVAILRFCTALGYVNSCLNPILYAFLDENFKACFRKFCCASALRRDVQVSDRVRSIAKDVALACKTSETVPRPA
# UniProt P08510, 1-655 with tags or gaps DEL6-46: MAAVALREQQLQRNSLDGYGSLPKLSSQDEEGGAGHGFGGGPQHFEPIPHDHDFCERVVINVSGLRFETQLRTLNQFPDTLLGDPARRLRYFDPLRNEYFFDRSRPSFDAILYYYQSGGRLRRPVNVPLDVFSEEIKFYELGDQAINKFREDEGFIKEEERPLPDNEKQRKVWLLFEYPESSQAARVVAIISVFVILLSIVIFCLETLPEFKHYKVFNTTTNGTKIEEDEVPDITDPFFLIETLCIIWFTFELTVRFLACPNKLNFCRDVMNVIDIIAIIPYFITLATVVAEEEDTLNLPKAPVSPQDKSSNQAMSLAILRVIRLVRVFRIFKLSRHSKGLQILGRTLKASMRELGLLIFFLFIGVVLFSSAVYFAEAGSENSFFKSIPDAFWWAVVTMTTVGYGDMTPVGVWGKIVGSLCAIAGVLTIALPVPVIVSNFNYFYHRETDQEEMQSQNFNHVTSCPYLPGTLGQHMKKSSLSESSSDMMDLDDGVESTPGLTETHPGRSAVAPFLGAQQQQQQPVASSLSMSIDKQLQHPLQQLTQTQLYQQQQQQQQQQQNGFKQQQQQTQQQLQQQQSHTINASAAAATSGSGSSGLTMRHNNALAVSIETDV
# UniProt Q8I719, whole entry: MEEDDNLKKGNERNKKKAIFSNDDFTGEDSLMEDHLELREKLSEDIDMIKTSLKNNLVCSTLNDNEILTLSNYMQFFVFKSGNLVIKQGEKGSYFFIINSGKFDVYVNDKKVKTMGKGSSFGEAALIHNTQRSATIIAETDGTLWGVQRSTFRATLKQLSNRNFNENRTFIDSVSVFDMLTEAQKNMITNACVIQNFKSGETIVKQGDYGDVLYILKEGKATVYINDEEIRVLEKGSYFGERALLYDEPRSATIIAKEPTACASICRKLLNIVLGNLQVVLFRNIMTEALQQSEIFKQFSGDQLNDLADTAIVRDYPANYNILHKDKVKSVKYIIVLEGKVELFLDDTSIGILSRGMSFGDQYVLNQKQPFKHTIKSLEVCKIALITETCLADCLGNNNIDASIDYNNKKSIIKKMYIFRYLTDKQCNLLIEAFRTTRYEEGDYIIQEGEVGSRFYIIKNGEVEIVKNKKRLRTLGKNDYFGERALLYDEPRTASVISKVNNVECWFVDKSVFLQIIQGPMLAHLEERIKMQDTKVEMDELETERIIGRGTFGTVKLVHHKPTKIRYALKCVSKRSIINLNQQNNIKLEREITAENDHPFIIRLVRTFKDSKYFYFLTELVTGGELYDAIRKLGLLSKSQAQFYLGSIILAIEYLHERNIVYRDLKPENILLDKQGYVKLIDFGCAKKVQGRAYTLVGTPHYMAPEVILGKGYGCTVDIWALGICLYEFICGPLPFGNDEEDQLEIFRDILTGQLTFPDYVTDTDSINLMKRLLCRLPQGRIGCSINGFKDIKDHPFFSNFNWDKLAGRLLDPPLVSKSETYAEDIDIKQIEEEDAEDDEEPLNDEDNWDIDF
# UniProt P37136, 32-614 limits assumed: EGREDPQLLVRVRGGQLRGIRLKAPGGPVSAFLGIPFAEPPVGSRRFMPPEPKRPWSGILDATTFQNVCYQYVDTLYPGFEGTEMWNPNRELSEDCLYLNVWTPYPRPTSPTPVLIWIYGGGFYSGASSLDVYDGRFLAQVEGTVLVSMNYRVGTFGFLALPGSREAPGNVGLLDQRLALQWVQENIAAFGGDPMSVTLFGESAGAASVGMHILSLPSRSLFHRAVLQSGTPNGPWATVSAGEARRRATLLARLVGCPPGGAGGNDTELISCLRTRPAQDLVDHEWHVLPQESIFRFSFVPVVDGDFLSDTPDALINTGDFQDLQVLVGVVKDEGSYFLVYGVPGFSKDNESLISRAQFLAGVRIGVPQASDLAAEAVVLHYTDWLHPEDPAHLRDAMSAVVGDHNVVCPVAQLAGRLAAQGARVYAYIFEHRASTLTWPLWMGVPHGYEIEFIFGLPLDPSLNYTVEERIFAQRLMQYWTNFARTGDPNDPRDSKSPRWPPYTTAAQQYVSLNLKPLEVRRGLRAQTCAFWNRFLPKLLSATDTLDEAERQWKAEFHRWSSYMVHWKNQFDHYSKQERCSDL
# Compare with care: the assays were run in different laboratories. ± gives the spread as reported.
# OPRL1: Nociceptin receptor (OPRL1, Homo sapiens, UniProt P41146)
# dfrA: Dihydrofolate reductase (dfrA, Bacillus anthracis, UniProt Q81R22)
# Lethal factor: Lethal factor (Bacillus anthracis, UniProt P15917)
SMILES,tested on,assay,test system,setting,how to read,endpoint,value
CC(C)[C@H]1CC[C@@H](N2CCC3(CC2)C(=O)NCN3c2ccccc2)CC1,OPRL1,"G protein interaction, BRET",HEK293 membranes,"concentration not given, unit not given",reference: N/OFQ maximal effect,intrinsic activity,0.93 ± 0.02
COC(=O)CN1CN(c2ccccc2)C2(CCN(Cc3cccc4ccccc34)CC2)C1=O,OPRL1,"GIRK channel activation, agonist",AtT20 expressing OPRL1,180 s,,EC50,56 ± 9.3 nM
Cc1ccc(OCCN(C)C)cc1C(=O)N[C@H](C)c1cc(-c2cnn(CCO)c2)cc(-c2cnn(CCO)c2)c1,"Replicase polyprotein 1ab, papain-like protease (rep, Severe acute respiratory syndrome coronavirus 2, UniProt P0DTD1)","protease activity, inhibitor",FlipGFP reporter cells,,,EC50,> 10000 nM
COc1cc(Cc2cnc(N)nc2N)cc(/C=C/C(=O)N2N=Cc3ccccc3C2C(C)C)c1OC (racemic),dfrA,inhibitor,,,,Ki,13.2 nM
O=C(/C=C/c1ccc(O)cc1)/C(C(=O)Nc1ccccc1)=C(O)/C=C/c1ccc(O)cc1,Lethal factor,"enzyme activity, non-competitive inhibitor",,apparent,,Ki,34500 nM
CC[C@H](C)[C@@H]1NC(=O)[C@H](CCCNC(=N)N)NC(=O)[C@@H](N)CSSC[C@@H]2NC(=O)[C@@H]3CSSC[C@@H](C(=O)N[C@H](C(=O)O)C(C)C)NC(=O)[C@H](CCCCN)NC(=O)[C@H](CC(N)=O)NC(=O)[C@H](Cc4ccccc4)NC(=O)[C@H](CCCNC(=N)N)NC(=O)[C@H](CC(N)=O)NC(=O)[C@H](CSSC[C@H](NC(=O)[C@H](CCCCN)NC(=O)[C@H](CCC(N)=O)NC(=O)[C@H](CC(N)=O)NC(=O)[C@@H]4C[C@@H](O)CN4C1=O)C(=O)N[C@@H](Cc1ccccc1)C(=O)N[C@@H](CCC(N)=O)C(=O)N[C@@H](Cc1c[nH]cn1)C(=O)N[C@@H](CC(C)C)C(=O)N[C@@H](CC(=O)O)C(=O)N[C@@H](CC(=O)O)C(=O)N3)NC(=O)[C@H](CCCCN)NC(=O)[C@H](CCCNC(=N)N)NC(=O)[C@H](CO)NC2=O,"Sh (Drosophila melanogaster, UniProt P08510, del6-46)","potassium current, two-electrode voltage clamp",Xenopus oocytes,zero voltage,,Kd,240 ± 30 nM
CCC1(C2OC(C3OC(O)(CO)C(C)CC3C)CC2C)CCC(C2(C)CCC3(CC(O)C(C)C(C(C)C(OC)C(C)C(=O)O)O3)O2)O1 (stereo not drawn),"N/L (Lymphocytic choriomeningitis virus, UniProt P09992+P14240)","viral replication, Gaussia luciferase reporter",,,,EC50,190 nM
CCN(CC)Cc1onc(-c2cccc(Cl)c2)c1-c1ccnc(N[C@@H]2CCN(C(=O)c3ccn(C)n3)C2)n1,"cGMP-dependent protein kinase (PKG, Plasmodium falciparum, UniProt Q8I719)","kinase activity, inhibitor, IMAP",,"with: ATP 10 µM, FAM-PKAtide",,IC50,21 ± 11 nM
CC[C@H](C)[C@H](NC(=O)[C@H](C)NC(=O)[C@H](CCC(=O)O)NC(=O)[C@H](CCC(=O)O)NC(=O)[C@H](CC(C)C)NC(=O)[C@H](CCCCN)NC(=O)[C@H](CCCCN)NC(=O)[C@H](CCSC)NC(=O)[C@H](CCC(=O)O)NC(=O)[C@H](Cc1ccc(O)cc1)NC(=O)[C@H](CCC(=O)O)NC(=O)[C@H](CC(C)C)NC(=O)[C@H](CC(=O)O)NC(=O)[C@H](CC(C)C)NC(=O)[C@H](Cc1ccccc1)NC(=O)[C@H](Cc1ccc(O)cc1)NC(=O)[C@@H](NC(=O)[C@H](CC(N)=O)NC(=O)[C@@H](NC(=O)[C@H](CCC(N)=O)NC(=O)[C@H](CC(=O)O)NC(=O)[C@H](CC(C)C)NC(=O)[C@@H](N)CO)[C@@H](C)CC)C(C)C)C(=O)N[C@@H](CCCCN)C(=O)N[C@@H](CCCCN)C(=O)N[C@@H](CC(C)C)C(=O)N[C@@H](CCC(=O)O)C(=O)N[C@@H](CCC(=O)O)C(=O)N[C@H](C(=O)N[C@@H](Cc1ccc(O)cc1)C(=O)N[C@H](C(=O)N[C@@H](CC(=O)O)C(=O)N[C@@H](CC(C)C)C(=O)N[C@@H](CCCCN)C(=O)N[C@@H](CCC(=O)O)C(=O)N[C@@H](CC(C)C)C(=O)O)[C@@H](C)CC)[C@@H](C)O,SARS-CoV-2 EG.5.1 pseudovirus,"pseudovirus infection, inhibitor, luciferase",Caco-2,"24 h, dual mutations",,IC50,271 nM
CS(=O)(=O)C=CCNC(=O)c1ccc2[nH]c(=O)n(C3CC3)c2c1,"Polyprotein P1234, nsP2 protease (Chikungunya virus, UniProt Q5XXP4)",time-dependent inhibition,,,,Ki,19000 ± 2000 nM
CC[C@H](C)[C@@H]1NC(=O)[C@@H]2CSSC[C@H](NC(=O)[C@H](CCCNC(=N)N)NC(=O)[C@@H]3CSSC[C@H](NC1=O)C(=O)N[C@@H]([C@@H](C)O)C(=O)N[C@@H](CCCNC(=N)N)C(=O)NCC(=O)N[C@@H](Cc1ccccc1)C(=O)N3)C(=O)N[C@@H](CC(C)C)C(=O)N[C@H]1CSSC[C@H](NC(=O)[C@H](C(C)C)NC(=O)CNC(=O)[C@H](CCCNC(=N)N)NC(=O)[C@H](CCCNC(=N)N)NC1=O)C(=O)N[C@@H](CCCNC(=N)N)C(=O)N2,Lethal factor,"enzyme activity, inhibitor",,,,Ki,381 ± 21 nM
COc1cc(Cc2cnc(N)nc2N)cc(/C=C/C(=O)N2N=Cc3ccccc3[C@@H]2C=C(C)C)c1OC,dfrA,inhibitor,,,,Ki,4.4 nM
CCOP(=O)(OCC)ON1C(=O)c2cccc3cccc(c23)C1=O,"Ache (Rattus norvegicus, UniProt P37136)",inhibitor,"rat, postnatal day 1, rat serum",,,IC50,39 nM
COc1cc(Cc2cnc(N)nc2N)cc(/C=C/C(=O)N2N=Cc3ccccc3C2c2ccccc2)c1OC (racemic),dfrA,inhibitor,,,,Ki,5 nM
CC[C@H](C)[C@H](NC(=O)[C@H](C)NC(=O)[C@H](CCC(=O)O)NC(=O)[C@H](CCC(=O)O)NC(=O)[C@H](CC(C)C)NC(=O)[C@H](CCCCN)NC(=O)[C@H](CCCCN)NC(=O)[C@H](CCSC)NC(=O)[C@H](CCC(=O)O)NC(=O)[C@H](Cc1ccc(O)cc1)NC(=O)[C@H](CCC(=O)O)NC(=O)[C@H](CC(C)C)NC(=O)[C@H](CC(=O)O)NC(=O)[C@H](CC(C)C)NC(=O)[C@H](Cc1ccccc1)NC(=O)[C@H](Cc1ccc(O)cc1)NC(=O)[C@@H](NC(=O)[C@H](CC(N)=O)NC(=O)[C@@H](NC(=O)[C@H](CCC(N)=O)NC(=O)[C@H](CC(=O)O)NC(=O)[C@H](CC(C)C)NC(=O)[C@@H](N)CO)[C@@H](C)CC)C(C)C)C(=O)N[C@@H](CCCCN)C(=O)N[C@@H](CCCCN)C(=O)N[C@@H](CC(C)C)C(=O)N[C@@H](CCC(=O)O)C(=O)N[C@@H](CCC(=O)O)C(=O)N[C@@H](CO)C(=O)N[C@@H](Cc1ccc(O)cc1)C(=O)N[C@H](C(=O)N[C@@H](CC(=O)O)C(=O)N[C@@H](CC(C)C)C(=O)N[C@@H](CCCCN)C(=O)N[C@@H](CCC(=O)O)C(=O)N[C@@H](CC(C)C)C(=O)O)[C@@H](C)CC,SARS-CoV-2 Gamma pseudovirus,"pseudovirus infection, inhibitor, luciferase",Caco-2,24 h,,IC50,468 nM

# A few entries again:
SMILES,tested on,assay,test system,setting,how to read,endpoint,value
CC[C@H](C)[C@@H]1NC(=O)[C@H](CCCNC(=N)N)NC(=O)[C@@H](N)CSSC[C@@H]2NC(=O)[C@@H]3CSSC[C@@H](C(=O)N[C@H](C(=O)O)C(C)C)NC(=O)[C@H](CCCCN)NC(=O)[C@H](CC(N)=O)NC(=O)[C@H](Cc4ccccc4)NC(=O)[C@H](CCCNC(=N)N)NC(=O)[C@H](CC(N)=O)NC(=O)[C@H](CSSC[C@H](NC(=O)[C@H](CCCCN)NC(=O)[C@H](CCC(N)=O)NC(=O)[C@H](CC(N)=O)NC(=O)[C@@H]4C[C@@H](O)CN4C1=O)C(=O)N[C@@H](Cc1ccccc1)C(=O)N[C@@H](CCC(N)=O)C(=O)N[C@@H](Cc1c[nH]cn1)C(=O)N[C@@H](CC(C)C)C(=O)N[C@@H](CC(=O)O)C(=O)N[C@@H](CC(=O)O)C(=O)N3)NC(=O)[C@H](CCCCN)NC(=O)[C@H](CCCNC(=N)N)NC(=O)[C@H](CO)NC2=O,"Sh (Drosophila melanogaster, UniProt P08510, del6-46)","potassium current, two-electrode voltage clamp",Xenopus oocytes,zero voltage,,Kd,240 ± 30 nM
CCC1(C2OC(C3OC(O)(CO)C(C)CC3C)CC2C)CCC(C2(C)CCC3(CC(O)C(C)C(C(C)C(OC)C(C)C(=O)O)O3)O2)O1 (stereo not drawn),"N/L (Lymphocytic choriomeningitis virus, UniProt P09992+P14240)","viral replication, Gaussia luciferase reporter",,,,EC50,190 nM
